# Experimental data of several laboratories.
# Target: Rhodopsin kinase GRK7 (GRK7, Homo sapiens, UniProt Q8WTQ7)
assay,conditions,scale,measurement,value,Structure (SMILES)
"kinase activity, inhibitor",1 µM,relative to: untreated control,remaining activity,109%,COc1c(OCCCN2CCOCC2)ccc2c1N=C(NC(=O)c1cnc(N)nc1)N1CCN=C21
enzyme activity,1 µM,relative to: DMSO control,remaining activity,78%,Nc1ncc(-c2cc(-c3cnn(CC(F)(F)F)c3)ncc2F)nc1C(=O)NC1CNCC(F)C1 (centres unmarked)
"binding, competition with immobilised ligand",3 µM,,remaining binding,3.9%,Cc1c[nH]c2nccc(-c3ccc(C(=O)N[C@@H]4c5c(F)cc(C(F)F)cc5C[C@@H]4O)cn3)c12
enzyme activity,"100 nM, human enzyme, together with: 10 µM ATP",relative to: untreated,remaining activity,46%,O=C=[N][Ru-4]123([n]4c5ccc(O)cc5c5c6c(c7cc(F)c[n+]1c7c54)C(=O)NC6=O)[S+]1CC[S+]2CC[S+]3CC1 (centres unmarked)
"binding, competition with immobilised ligand",1 µM,,remaining binding,70%,Nc1ncc2c(n1)-c1c([nH]c3ccc(C4=CCOCC4)cc13)CCC2
"enzyme activity, inhibitor",10 µM,,activity vs control,104%,O=C(Cc1ccc(OCc2ccccc2)cc1)NC1(C(=O)O)CCN(C(=O)c2ccc(-c3cccc(Cl)c3)cc2)CC1
"cell-free assay, inhibitor",1 µM,,inhibition,0.3%,C=CC(=O)N1Cc2nc(-c3cc(-c4cc(Cl)cnc4Cl)c(F)cc3F)n(-c3ccncn3)c2C1
KINOMEscan,1 µM,relative to: DMSO control,remaining binding,92%,C=CC(=O)N1CCc2ccc(-n3c(=O)ccc4cnc5ccc(-c6cnn(C)c6)cc5c43)cc21
"binding, competition with immobilised ligand",1 µM,,remaining binding,67%,COc1cc(Nc2nccc(-c3cnn4nc(OC)ccc34)n2)cc(C(F)(F)F)c1
"enzyme activity, inhibitor",10 µM,,inhibition,4%,NC(=O)[C@@H](O)C[C@H]1CCc2sc3ncnc(O[C@H]4CC[C@H](N5CCOCC5)CC4)c3c21
"enzyme activity, inhibitor",1 µM,,activity vs control,104%,CNC(=O)C[C@H](Cc1ccc(C#N)cc1)NC(=O)c1cc(-c2ccc(CN[C@H](C)c3ccc(C)cc3)o2)ccc1Cl
binding,0.1 µM,,remaining binding,87%,Cc1cnc2nc1Nc1cccc(c1)COC/C=C/COCc1cc(ccc1OCCN1CCOCC1)N2
"enzyme activity, inhibitor",1 µM,,inhibition,7%,Cc1cccc(O[C@H]2CCC[C@@H](C(C)CNCc3ccncc3)C2)c1 (relative stereo)
"enzyme activity, inhibitor",0.1 µM,,inhibition,4%,CN1CCN(Cc2ccc(-c3ccc(CO[C@H]4CCC[C@@H]4NC(=O)c4cc(-c5cnn(C)c5)cnc4N)cc3)cc2)CC1

# A few entries again:
assay,conditions,scale,measurement,value,Structure (SMILES)
"kinase activity, inhibitor",1 µM,relative to: untreated control,remaining activity,109%,COc1c(OCCCN2CCOCC2)ccc2c1N=C(NC(=O)c1cnc(N)nc1)N1CCN=C21
enzyme activity,1 µM,relative to: DMSO control,remaining activity,78%,Nc1ncc(-c2cc(-c3cnn(CC(F)(F)F)c3)ncc2F)nc1C(=O)NC1CNCC(F)C1 (centres unmarked)
